Assay results gathered from unrelated publications.
Protocols differ between the studies behind these lines. ± marks the error that the study gave.
CYP2C9: Cytochrome P450 2C9 (CYP2C9, Homo sapiens, UniProt P11712)
ALDH1A2: Retinal dehydrogenase 2 (ALDH1A2, Homo sapiens, UniProt O94788)
KCNH2: Voltage-gated inwardly rectifying potassium channel KCNH2 (KCNH2, Homo sapiens, UniProt Q12809)
CYP3A4: Cytochrome P450 3A4 (CYP3A4, Homo sapiens, UniProt P08684)
CYP2D6: Cytochrome P450 2D6 (CYP2D6, Homo sapiens, UniProt P10635)
AHR: Aryl hydrocarbon receptor (AHR, Homo sapiens, UniProt P35869)
ABCB1: ATP-dependent translocase ABCB1 (ABCB1, Homo sapiens, UniProt P08183)

Amino acid sequences for entries named in this document (tags omitted). Residues count along the entry.
UniProt P11712, whole entry: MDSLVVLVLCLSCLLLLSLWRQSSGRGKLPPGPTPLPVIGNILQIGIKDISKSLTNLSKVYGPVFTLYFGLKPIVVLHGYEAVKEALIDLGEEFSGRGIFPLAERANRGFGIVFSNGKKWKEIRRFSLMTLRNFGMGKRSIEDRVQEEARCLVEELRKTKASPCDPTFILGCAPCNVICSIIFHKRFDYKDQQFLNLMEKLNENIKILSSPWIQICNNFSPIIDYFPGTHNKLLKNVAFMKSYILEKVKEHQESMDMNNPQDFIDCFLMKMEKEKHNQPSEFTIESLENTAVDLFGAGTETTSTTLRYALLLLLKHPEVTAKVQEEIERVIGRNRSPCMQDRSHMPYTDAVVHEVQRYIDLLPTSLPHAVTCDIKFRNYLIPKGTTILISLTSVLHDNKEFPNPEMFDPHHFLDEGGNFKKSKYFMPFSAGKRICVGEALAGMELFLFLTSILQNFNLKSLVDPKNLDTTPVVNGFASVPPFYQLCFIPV
UniProt O94788, whole entry: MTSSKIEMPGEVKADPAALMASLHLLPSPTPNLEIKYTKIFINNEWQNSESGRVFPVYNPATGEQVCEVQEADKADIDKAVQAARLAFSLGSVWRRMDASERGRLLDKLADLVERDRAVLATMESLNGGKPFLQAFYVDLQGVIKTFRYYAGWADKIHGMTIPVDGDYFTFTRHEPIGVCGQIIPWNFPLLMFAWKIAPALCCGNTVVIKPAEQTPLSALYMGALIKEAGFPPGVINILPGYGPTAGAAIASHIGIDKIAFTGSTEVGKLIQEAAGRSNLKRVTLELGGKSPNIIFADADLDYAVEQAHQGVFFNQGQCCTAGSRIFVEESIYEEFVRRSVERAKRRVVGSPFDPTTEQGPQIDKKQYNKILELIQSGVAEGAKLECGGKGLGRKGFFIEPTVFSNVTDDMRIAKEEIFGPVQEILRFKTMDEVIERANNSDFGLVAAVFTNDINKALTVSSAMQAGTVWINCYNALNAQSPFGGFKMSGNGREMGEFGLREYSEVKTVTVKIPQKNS
UniProt Q12809, whole entry: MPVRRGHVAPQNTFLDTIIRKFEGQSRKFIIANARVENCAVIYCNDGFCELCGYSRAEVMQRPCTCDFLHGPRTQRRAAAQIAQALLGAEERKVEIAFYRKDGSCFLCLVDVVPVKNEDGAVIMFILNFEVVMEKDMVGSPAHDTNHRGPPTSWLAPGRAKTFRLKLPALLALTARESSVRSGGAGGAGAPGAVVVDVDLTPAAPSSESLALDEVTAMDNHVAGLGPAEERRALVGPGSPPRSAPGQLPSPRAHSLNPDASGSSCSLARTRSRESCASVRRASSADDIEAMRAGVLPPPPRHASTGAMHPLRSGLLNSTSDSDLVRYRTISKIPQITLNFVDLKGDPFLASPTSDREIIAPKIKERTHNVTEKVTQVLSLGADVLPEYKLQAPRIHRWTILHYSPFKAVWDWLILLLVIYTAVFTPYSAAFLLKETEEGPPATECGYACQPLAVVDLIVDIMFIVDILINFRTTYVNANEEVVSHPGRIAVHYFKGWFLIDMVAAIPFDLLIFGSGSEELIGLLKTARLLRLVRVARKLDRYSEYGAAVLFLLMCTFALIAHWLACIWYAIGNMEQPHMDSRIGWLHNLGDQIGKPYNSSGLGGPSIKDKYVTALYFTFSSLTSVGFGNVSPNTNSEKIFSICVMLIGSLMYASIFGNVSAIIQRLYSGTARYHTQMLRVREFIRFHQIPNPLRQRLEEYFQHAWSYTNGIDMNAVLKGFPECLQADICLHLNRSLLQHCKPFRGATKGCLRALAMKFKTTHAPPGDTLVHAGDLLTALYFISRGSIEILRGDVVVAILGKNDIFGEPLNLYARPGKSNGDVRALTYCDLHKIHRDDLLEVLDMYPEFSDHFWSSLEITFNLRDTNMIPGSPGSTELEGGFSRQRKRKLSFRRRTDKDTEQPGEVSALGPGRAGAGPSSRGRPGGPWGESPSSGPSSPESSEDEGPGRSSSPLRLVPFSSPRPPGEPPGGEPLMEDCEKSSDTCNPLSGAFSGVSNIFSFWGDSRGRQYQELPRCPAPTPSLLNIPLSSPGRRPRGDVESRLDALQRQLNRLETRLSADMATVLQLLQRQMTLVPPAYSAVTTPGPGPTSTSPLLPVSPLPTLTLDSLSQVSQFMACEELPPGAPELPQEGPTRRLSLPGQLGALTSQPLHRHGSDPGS
UniProt P08684, whole entry: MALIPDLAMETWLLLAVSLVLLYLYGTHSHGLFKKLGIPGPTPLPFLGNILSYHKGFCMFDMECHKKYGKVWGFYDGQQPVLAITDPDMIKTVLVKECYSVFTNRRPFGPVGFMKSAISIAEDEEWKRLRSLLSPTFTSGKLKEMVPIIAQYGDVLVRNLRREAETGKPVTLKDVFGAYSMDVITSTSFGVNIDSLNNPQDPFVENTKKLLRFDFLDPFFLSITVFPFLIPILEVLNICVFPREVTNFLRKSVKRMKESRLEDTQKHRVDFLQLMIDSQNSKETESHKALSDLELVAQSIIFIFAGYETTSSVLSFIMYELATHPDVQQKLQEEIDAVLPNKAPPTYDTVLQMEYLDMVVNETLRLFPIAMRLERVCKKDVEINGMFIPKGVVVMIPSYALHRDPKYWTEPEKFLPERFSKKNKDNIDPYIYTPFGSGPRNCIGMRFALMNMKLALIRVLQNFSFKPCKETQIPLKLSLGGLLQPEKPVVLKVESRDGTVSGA
UniProt P10635, whole entry: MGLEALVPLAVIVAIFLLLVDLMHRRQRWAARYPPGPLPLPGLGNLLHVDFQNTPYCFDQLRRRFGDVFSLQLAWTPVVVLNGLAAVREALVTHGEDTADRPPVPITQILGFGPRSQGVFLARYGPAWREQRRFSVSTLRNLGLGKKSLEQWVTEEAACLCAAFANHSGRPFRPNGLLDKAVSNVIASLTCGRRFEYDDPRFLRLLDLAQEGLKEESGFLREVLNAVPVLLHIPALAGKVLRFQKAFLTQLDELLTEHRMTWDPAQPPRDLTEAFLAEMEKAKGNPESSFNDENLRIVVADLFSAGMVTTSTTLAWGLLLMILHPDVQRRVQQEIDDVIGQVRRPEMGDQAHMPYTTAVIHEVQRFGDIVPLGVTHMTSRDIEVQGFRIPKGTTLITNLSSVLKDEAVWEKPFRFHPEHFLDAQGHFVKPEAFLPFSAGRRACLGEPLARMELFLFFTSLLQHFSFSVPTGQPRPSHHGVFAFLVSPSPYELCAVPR
UniProt P35869, whole entry, looked up: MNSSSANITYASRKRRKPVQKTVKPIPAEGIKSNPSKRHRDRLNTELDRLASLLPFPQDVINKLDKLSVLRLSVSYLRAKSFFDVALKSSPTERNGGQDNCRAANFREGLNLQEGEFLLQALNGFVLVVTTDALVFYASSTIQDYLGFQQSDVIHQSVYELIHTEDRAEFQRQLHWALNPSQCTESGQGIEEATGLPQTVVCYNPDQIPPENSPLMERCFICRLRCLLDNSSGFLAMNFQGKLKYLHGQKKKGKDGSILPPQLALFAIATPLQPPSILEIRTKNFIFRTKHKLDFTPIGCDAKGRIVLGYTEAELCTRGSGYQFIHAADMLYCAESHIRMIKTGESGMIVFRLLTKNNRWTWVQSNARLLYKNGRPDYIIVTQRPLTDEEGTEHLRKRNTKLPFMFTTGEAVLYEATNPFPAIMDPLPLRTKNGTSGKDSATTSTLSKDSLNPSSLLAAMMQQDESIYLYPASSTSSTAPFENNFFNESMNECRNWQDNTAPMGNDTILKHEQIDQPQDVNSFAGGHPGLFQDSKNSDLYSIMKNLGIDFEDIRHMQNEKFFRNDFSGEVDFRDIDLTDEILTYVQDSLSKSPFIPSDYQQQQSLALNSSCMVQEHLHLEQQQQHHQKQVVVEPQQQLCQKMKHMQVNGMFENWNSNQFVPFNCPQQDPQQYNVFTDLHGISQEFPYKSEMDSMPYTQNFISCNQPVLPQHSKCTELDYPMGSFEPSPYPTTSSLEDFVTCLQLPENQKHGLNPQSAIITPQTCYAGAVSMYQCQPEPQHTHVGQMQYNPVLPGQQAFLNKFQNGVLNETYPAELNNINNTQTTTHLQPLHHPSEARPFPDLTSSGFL
UniProt P08183, whole entry: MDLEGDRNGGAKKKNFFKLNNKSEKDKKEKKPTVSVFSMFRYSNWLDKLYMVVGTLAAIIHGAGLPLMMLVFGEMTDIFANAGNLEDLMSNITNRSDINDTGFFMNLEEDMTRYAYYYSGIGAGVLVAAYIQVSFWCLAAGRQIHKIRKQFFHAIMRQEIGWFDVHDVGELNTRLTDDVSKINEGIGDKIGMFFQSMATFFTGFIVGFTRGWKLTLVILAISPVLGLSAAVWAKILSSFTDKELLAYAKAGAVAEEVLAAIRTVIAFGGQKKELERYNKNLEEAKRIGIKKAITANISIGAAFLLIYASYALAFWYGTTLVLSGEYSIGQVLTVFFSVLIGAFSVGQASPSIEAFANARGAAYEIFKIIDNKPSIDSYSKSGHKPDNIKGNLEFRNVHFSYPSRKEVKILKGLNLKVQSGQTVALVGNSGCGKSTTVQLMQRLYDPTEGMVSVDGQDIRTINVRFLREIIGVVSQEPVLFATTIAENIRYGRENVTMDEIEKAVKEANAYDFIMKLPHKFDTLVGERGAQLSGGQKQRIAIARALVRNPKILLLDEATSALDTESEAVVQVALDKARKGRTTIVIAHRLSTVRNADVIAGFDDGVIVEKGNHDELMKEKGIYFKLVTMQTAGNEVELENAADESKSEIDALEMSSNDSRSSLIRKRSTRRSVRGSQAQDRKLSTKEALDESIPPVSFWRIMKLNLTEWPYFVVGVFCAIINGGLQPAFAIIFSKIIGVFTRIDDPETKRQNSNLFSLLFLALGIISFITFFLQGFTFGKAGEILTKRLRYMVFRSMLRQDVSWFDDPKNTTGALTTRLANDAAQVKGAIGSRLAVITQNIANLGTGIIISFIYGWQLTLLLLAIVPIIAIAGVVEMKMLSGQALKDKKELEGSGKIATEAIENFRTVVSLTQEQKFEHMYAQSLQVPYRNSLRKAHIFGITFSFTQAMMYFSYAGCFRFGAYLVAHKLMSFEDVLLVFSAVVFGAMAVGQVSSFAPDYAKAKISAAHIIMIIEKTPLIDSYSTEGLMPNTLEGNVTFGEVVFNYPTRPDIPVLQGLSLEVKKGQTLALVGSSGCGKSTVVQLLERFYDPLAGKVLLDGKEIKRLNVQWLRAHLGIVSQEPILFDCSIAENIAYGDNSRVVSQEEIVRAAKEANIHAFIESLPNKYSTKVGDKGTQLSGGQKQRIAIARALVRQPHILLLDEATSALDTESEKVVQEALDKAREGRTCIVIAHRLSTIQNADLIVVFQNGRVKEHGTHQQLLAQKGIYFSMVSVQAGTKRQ
UniProt P20813, whole entry: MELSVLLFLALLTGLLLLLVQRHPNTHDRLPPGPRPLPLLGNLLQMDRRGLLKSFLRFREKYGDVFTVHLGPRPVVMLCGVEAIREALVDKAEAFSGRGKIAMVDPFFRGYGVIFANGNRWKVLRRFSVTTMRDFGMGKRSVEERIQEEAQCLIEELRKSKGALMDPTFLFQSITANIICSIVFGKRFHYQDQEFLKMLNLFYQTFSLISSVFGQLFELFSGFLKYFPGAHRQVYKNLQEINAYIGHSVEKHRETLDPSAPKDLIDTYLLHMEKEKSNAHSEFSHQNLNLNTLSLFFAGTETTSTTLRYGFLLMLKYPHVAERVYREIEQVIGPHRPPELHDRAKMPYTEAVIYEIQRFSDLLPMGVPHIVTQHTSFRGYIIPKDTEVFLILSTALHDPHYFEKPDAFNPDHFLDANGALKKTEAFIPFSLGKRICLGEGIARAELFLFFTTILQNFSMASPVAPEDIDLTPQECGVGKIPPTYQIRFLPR
UniProt Q51714, 1-616: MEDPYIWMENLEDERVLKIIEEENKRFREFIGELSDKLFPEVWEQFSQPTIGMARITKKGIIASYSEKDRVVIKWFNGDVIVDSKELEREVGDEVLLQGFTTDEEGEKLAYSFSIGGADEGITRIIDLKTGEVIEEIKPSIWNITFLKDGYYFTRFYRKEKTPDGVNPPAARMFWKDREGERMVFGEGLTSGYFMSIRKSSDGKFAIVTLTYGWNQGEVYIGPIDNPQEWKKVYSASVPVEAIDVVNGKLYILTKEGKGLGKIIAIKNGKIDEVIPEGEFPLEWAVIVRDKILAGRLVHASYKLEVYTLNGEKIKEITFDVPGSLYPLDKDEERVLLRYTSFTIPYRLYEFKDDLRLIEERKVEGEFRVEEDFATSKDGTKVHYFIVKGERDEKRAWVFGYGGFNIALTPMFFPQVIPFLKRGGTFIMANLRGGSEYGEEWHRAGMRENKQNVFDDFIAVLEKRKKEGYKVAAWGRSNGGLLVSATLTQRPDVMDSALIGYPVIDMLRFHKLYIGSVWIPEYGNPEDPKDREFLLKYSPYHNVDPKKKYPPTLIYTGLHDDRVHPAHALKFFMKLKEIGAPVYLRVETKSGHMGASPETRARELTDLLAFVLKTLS

SMILES	target	test	system	setting	how to read	endpoint	value
Cc1n[nH]c(C)c1CCOC(=O)c1cccc2c1oc(=O)n2C	CYP2C9	inhibitor		10 µM		inhibition	10.1%
CCCn1c(NCc2cccc(OC)c2O)nc2ccccc21	ALDH1A2	enzyme activity, inhibitor, NADH absorbance 340 nm		pH 7.5, 25 °C, 200 µM NAD+, added: 100 µM propionaldehyde		EC50	9500 ± 890 nM
CC(=O)Nc1ccc2c3c(cccc13)C(=O)N(CCN1CCN(CCCCN3C(=O)CN(/N=C/c4ccc(-c5ccc(Cl)cc5)o4)C3=O)CC1)C2=O	KCNH2					Ki	120 nM
COc1ccc(NC(=O)CN2CCCN(S(=O)(=O)c3ccccc3)CC2)c(OC)c1	CYP2C9	enzyme activity, inhibitor				IC50	2900 nM
O=C1CN(/N=C/c2ccc(-c3ccc(Cl)cc3)o2)C(=O)N1CCCCN1CCN(CCCN2C(=O)c3cccc4cccc(c34)C2=O)CC1	KCNH2					Ki	80 nM
COc1ccc(CC(=O)OCc2ccc(-n3cccn3)cc2)cc1F	CYP3A4	inhibitor		10 µM		inhibition	13.4%
Cc1cccc(NC(=O)C2CC3CCC2C3)c1C (stereo not shown)	CYP2D6	enzyme activity, inhibitor				IC50	22200 nM
COc1cccc(C(=O)c2c[nH]c3ccccc23)n1	AHR	reporter gene, agonist	HepG2 transfected XRE-luciferase	4.5 h		EC50	120 nM
C[N+](C)=c1ccc2c(-c3ccccc3)c3ccc(N)cc3sc-2c1	ABCB1	ATPase activity, substrate		half-maximal ATPase stimulation		Km	9.3 ± 1 µM
COc1ccc(NC(=O)CN2CCCN(S(=O)(=O)c3ccc(C)cc3)CC2)c(OC)c1	CYP2C9	enzyme activity, inhibitor				IC50	2300 nM
COc1ccc(C(=O)c2c[nH]c3ccccc23)cc1	AHR	reporter gene, agonist		concentration not given, unsaturated curve	relative to: ITE 10 µM	activity	8%
OCC1Nc2ccc(Cl)cc2C(C#CC2CC2)(C(F)(F)F)O1 (stereo not shown)	Cytochrome P450 2B6 (CYP2B6, Homo sapiens, UniProt P20813)	product formation, substrate, cDNA-expressed enzyme				Km	1.4 ± 0.76 µM
COc1ccc(NC(=O)CN2CCCN(S(=O)(=O)c3cccs3)CC2)c(OC)c1	CYP3A4	enzyme activity, inhibitor				IC50	7400 nM
Cc1ccc(NC(=O)C2CC3CCC2C3)cc1 (stereo not shown)	CYP2D6	enzyme activity, inhibitor				IC50	> 30000 nM
c1ccc(-c2ccccn2)nc1	prolyl oligopeptidase (Pyrococcus furiosus, UniProt Q51714)	non-covalent binding, luminescence lifetime	water	concentration not given	relative to: free over bound cofactor	luminescence lifetime change	86 ns
Cc1ccc(NC(=O)C2CC3CCC2C3)c(C)c1 (stereo not shown)	CYP2C9	enzyme activity, inhibitor				IC50	> 30000 nM
COc1ccc(S(=O)(=O)N2CCCN(CC(=O)Nc3ccc(OC)cc3OC)CC2)cc1	CYP3A4	enzyme activity, inhibitor				IC50	4200 nM
CN(C)c1ccc2c(-c3ccc(C(=O)O)s3)c3ccc(=[N+](C)C)cc-3[te]c2c1	ABCB1	ATPase activity, substrate		half-maximal ATPase stimulation		Km	9.6 ± 1.1 µM
O=C(N[C@H](Cc1ccccc1)C(=O)O)c1sc2cc(F)ccc2c1Cl	CYP2D6	enzyme activity		concentration not given		inhibition	no effect
NCCNC(=O)c1cc2c([nH]c3ccccc32)c(-c2ccc(C(F)(F)F)cc2)n1	KCNH2	ion current, inhibitor				IC50	4400 nM
N=c1ccc2c(-c3ccccc3)c3ccc(N)cc3sc-2c1	ABCB1	ATPase activity, activator	sheep brain phosphatidylethanolamine	30 min, 37 °C	relative to: basal activity	Vmax	6.4 ± 0.6 fold
CC(C)c1ccc(NC(=O)C2CC3CCC2C3)cc1 (stereo not shown)	CYP3A4	enzyme activity, inhibitor				IC50	> 25000 nM
Oc1c(Cl)cccc1CNc1nc2ccccc2n1CC1CC1	ALDH1A2	enzyme activity, inhibitor, NADH absorbance 340 nm		pH 7.5, 25 °C, 200 µM NAD+, added: 100 µM propionaldehyde		EC50	390 ± 84 nM
COC(=O)c1ccc(C(=O)c2c[nH]c3ccccc23)cn1	AHR	reporter gene, agonist	HepG2 transfected XRE-luciferase	4.5 h		EC50	3870 nM
O=C1CN(/N=C/c2ccc(-c3ccc(Cl)cc3)o2)C(=O)N1CCCCN1CCN(CCN2C(=O)c3cccc4cccc(c34)C2=O)CC1	KCNH2					Ki	27 nM
COc1cc(C(=O)c2c[nH]c3ccccc23)ccn1	AHR	reporter gene, agonist	HepG2 transfected XRE-luciferase	4.5 h		EC50	2600 nM
CCCn1c(NCc2ccccc2O)nc2ccccc21	ALDH1A2	enzyme activity, inhibitor, NADH absorbance 340 nm		pH 7.5, 25 °C, 200 µM NAD+, added: 100 µM propionaldehyde		EC50	2700 ± 320 nM
CC(=O)Nc1ccc2c3c(cccc13)C(=O)N(CCCCCCN1CCN(CCCCN3C(=O)CN(/N=C/c4ccc(-c5ccc(Cl)cc5)o4)C3=O)CC1)C2=O	KCNH2					Ki	698 nM

For quick reference, copied from above:
SMILES	target	test	system	setting	how to read	endpoint	value
C[N+](C)=c1ccc2c(-c3ccccc3)c3ccc(N)cc3sc-2c1	ABCB1	ATPase activity, substrate		half-maximal ATPase stimulation		Km	9.3 ± 1 µM
COc1ccc(NC(=O)CN2CCCN(S(=O)(=O)c3ccc(C)cc3)CC2)c(OC)c1	CYP2C9	enzyme activity, inhibitor				IC50	2300 nM
COc1ccc(C(=O)c2c[nH]c3ccccc23)cc1	AHR	reporter gene, agonist		concentration not given, unsaturated curve	relative to: ITE 10 µM	activity	8%
